Experimental data pooled from the literature.
Each line is one published result; not all experiments were run side by side. Values joined by “and” are separate records of one study, mostly repeats; a detail may differ. ± gives the spread as reported.
Cell line: HeLa

`S=c1n(-c2ccccc2)c2c3ccccc3nc3[n+]2[n]1[Ir-3]12([S]3)([c]3cccc4ccc5ccc[n+]1c5c34)[c]1cccc3ccc4ccc[n+]2c4c13`: “cellular iridium uptake” 6.1 ± 0.01 fmol/cell (ICP-MS; 10 µM, 24 h, 37 °C).
For `CCCCCCCCCCCC1CC(=O)N[C@@H](CO)C(=O)N[C@H](CO)C(=O)N[C@H](C)C(=O)N(C)[C@@H](C(C)C)C(=O)N[C@H](CO)C(=O)N[C@H](CCCCN)C(=O)N[C@H](CO)C(=O)N[C@@H](CCCCN)C(=O)O1` (some centres unmarked), the survival was 116% (MTT; 3.2 mg).
For `CC1CCC(C(C)(C)C(=O)Nc2ccc(Oc3ccccc3)cc2)CC1` (centres unmarked), the IC50 was 21.1 µM (cell growth or viability; 72 h).
Under cytotoxicity, `C[C@@H](NC(=O)[C@@H](C)NC(=O)CNC(=O)CNC(=O)[C@H](CCCCN)NC(=O)OCC1c2ccccc2-c2ccccc21)C(=O)O` is recorded as “not toxic” (MTT; concentration not given).
For `Nc1c2c(nc3sc4c(c13)CCCCC4)CCCC2`, the IC50 was greater than 10 µM (cell growth or viability, ATP luminescence; 72 h).
The cell growth of `CC[C@H](C)[C@H](NC(=O)[C@H](C)NC(=O)[C@H](CCCCN)NC(=O)[C@H](CC(C)C)NC(=O)[C@@H](N)Cc1ccccc1)C(=O)N[C@@H](CCCCN)C(=O)N[C@@H](CCCCN)C(=O)N[C@@H](Cc1ccccc1)C(=O)NCC(=O)N[C@@H](CCCCN)C(=O)N[C@@H](CCC(=O)O)C(=O)N[C@@H](Cc1ccccc1)C(=O)N[C@@H](CCCCN)C(=O)N[C@@H](CCCCN)C(=O)N[C@H](C(=O)NCC(=O)N[C@@H](C)C(=O)N[C@@H](CCCCN)C(=O)N[C@@H](CC(C)C)C(=O)N[C@@H](CCCCN)C(=O)O)[C@@H](C)CC` is reported as 90.9% and 95.9% and 97.9% (MTT; 32 mg/L; reference: untreated).
The viability of `Cc1n[nH]c(C)c1CCCOc1cc(OCCCCCCNCCOCCOCCn2cc(CNc3ccc(C(=O)O)cc3)nn2)cc(C(=O)O)c1` is reported as 98% (cell growth or viability, MTT; 100 µM, 72 h).
With `CCCCCCc1cccc([C@H](O)C[C@H](CO)NC(=O)CCCCCOc2ccc3ccccc3c2)c1` the living cells was 91% and 84% and 94% (1 µM, lipidomics treatment).
`CCCCCCCCCCCC1CC(=O)N[C@H]([C@H](C)O)C(=O)N[C@@H](CN)C(=O)N[C@@H](CO)C(=O)N[C@@H](Cc2ccc(O)cc2)C(=O)O1` (some centres unmarked) gave a survival of 107% (MTT; 3.2 mg).
The living cells of `CCCCCCCCCCCC(=O)N[C@H](CO)C[C@@H](O)c1ccccc1` is reported as 92% and 93% and 86% (cell count; 1 µM, 24 h).
`CCCCCCCCCCCC1CC(=O)N[C@@H]([C@@H](C)O)C(=O)N[C@@H](Cc2ccccc2)C(=O)N[C@@H]([C@@H](C)O)C(=O)N[C@H]([C@H](C)O)C(=O)N[C@@H]([C@@H](C)O)C(=O)N[C@@H](Cc2ccccc2)C(=O)O1` (some centres unmarked) has a survival of -5.2% (MTT; 32 mg).
With `CC(C)=CCc1c(O)cc2c(c1O)C(=O)CC(c1ccc(O)cc1)O2` (centres unmarked) the log IC50 was 1.45 log µM (cytotoxicity, MTT; 48 h, together with: S9 fraction).
The viability of `CC[C@H](C)[C@H](NC(=O)[C@H](C)NC(=O)[C@H](CCCCN)NC(=O)[C@H](CCCCN)NC(=O)[C@@H](N)CCCNC(=N)N)C(=O)N[C@@H](CCCCN)C(=O)N[C@@H](CC(C)C)C(=O)N[C@H](C(=O)N[C@@H](CCCCN)C(=O)N[C@@H](CCCCN)C(=O)N[C@@H](CC(C)C)C(=O)N[C@H](C(=O)N[C@@H](CCCCN)C(=O)N[C@@H](CCCCN)C(=O)N[C@@H](CC(C)C)C(=O)N[C@@H](CCCCN)C(=O)N[C@@H](CCCCN)C(=O)N[C@@H](C)C(=O)N[C@@H](CC(C)C)C(=O)N[C@@H](CCCCN)C(=O)O)C(C)C)C(C)C` is reported as 70.5% (cell growth or viability, MTT; 64 µg/mL).
For `CCCCCCCCCCCCCC(=O)N[C@H]1C(=O)N[C@@H](CN)C(=O)N[C@@H](CO)C(=O)N[C@@H](Cc2ccc(O)cc2)C(=O)O[C@H]1C`, the survival was 113% (MTT; 3.2 mg).
